Measurements from different studies.
Several values in a cell are separate wells, animals, samples, runs or records. Numbers after ± are the reported error.
folP: Dihydropteroate synthase (folP, Bacteria, UniProt P0AC13)
TARDBP aggregated: TAR DNA-binding protein 43, aggregated (TARDBP, Homo sapiens, UniProt Q13148)
T1: RNA aptamer; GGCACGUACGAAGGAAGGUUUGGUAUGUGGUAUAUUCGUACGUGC
T2: RNA aptamer; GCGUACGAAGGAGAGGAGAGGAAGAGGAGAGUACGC

Cc1ccc2c(c1)N(C)C=CC2=Cc1sc2ccccc2[n+]1C  Kd (T1, RNA aptamer; fluorescence titration): 0.5 nM
N#CN1CC[C@H](C(=O)Nc2nc3c(s2)CN(C(=O)CN=[N+]=[N-])CC3)C1  total spectral count (Hornerin (Homo sapiens, UniProt Q86YZ3); click pull-down LC-MS/MS; HEK293T cells): 1
CN1C=C/C(=C\c2sc3ccccc3[n+]2CC(=O)NCc2ccccc2)c2ccccc21  binding (T2, RNA aptamer; X-ray crystallography): binds
Nc1nc2[nH]nc(CC(=O)O)c(=O)c2c(=O)[nH]1  melting temperature shift (folP; CETSA HiBiT; Escherichia coli, whole cells; concentration not given; relative to: DMSO): 5.72 °C
CC(=O)N[C@@H](CCC(=O)O)C(=O)N[C@@H](CCC(=O)O)C(=O)N[C@@H](CCC(=O)O)C(=O)N[C@@H](Cc1c[nH]c2ccccc12)C(=O)N[C@@H](C)C(=O)N[C@@H](CCCNC(=N)N)C(=O)N[C@@H](CCC(=O)O)C(=O)N[C@@H](Cc1ccccc1)C(=O)NCC(=O)N[C@@H](C)C(=O)N[C@@H](CCC(N)=O)C(=O)N[C@@H](CC(C)C)C(=O)N[C@@H](CCCNC(=N)N)C(=O)N[C@@H](CCCNC(=N)N)C(=O)N[C@@H](C)C(=O)N[C@@H](C)C(=O)N[C@@H](CC(=O)O)C(=O)N[C@@H](CC(=O)O)C(=O)N[C@@H](CC(C)C)C(=O)N[C@@H](CC(N)=O)C(=O)N[C@@H](C)C(=O)N[C@@H](CCC(N)=O)C(=O)N[C@@H](Cc1ccc(O)cc1)C(=O)N[C@@H](CCC(=O)O)C(=O)N[C@@H](CCCNC(=N)N)C(=O)N[C@@H](CCCNC(=N)N)C(=O)N[C@@H](CCCNC(=N)N)C(N)=O  ΔΔG (Induced myeloid leukemia cell differentiation protein Mcl-1 homolog, residues 152-308 (Mus musculus, UniProt P97287); binding, SPR; relative to: PUMA peptide): 0.88 kcal/mol
CN(C(=O)CCl)[C@@H](Cc1ccccc1)C(=O)N1CCCC[C@H]1C(=O)N[C@@H](Cc1c[nH]c2ccccc12)C(=O)N[C@@H](CCCNC(N)=O)C(N)=O  ΔTm (Peptidyl-prolyl cis-trans isomerase NIMA-interacting 1 (PIN1, Homo sapiens, UniProt Q13526); thermal stability, DSF): -6.4 °C
CC(=O)N[C@@H]1[C@@H](O[C@@H]2O[C@H](C(=O)O)[C@@H](O[C@@H]3O[C@H](COS(=O)(=O)O)[C@@H](OS(=O)(=O)O)[C@H](O[C@@H]4O[C@H](C(=O)O)[C@@H](OS(=O)(=O)O)[C@H](OS(=O)(=O)O)[C@H]4OS(=O)(=O)O)[C@H]3NC(C)=O)[C@H](OS(=O)(=O)O)[C@H]2OS(=O)(=O)O)[C@H](OS(=O)(=O)O)[C@@H](COS(=O)(=O)O)O[C@H]1SCCOCCOCCSSCCOCCOCCS[C@@H]1O[C@H](COS(=O)(=O)O)[C@@H](OS(=O)(=O)O)[C@H](O[C@@H]2O[C@H](C(=O)O)[C@@H](O[C@@H]3O[C@H](COS(=O)(=O)O)[C@@H](OS(=O)(=O)O)[C@H](O[C@@H]4O[C@H](C(=O)O)[C@@H](OS(=O)(=O)O)[C@H](OS(=O)(=O)O)[C@H]4OS(=O)(=O)O)[C@H]3NC(C)=O)[C@H](OS(=O)(=O)O)[C@H]2OS(=O)(=O)O)[C@H]1NC(C)=O  binding stoichiometry (Interleukin-10 (Il10, Mus musculus, UniProt P18893); ITC; concentration not given, concentrations 10 and 20 µM): 0.235 and 0.215 and 0.213
CC[C@H](C)[C@@H]1NC(=O)[C@H](Cc2ccccc2)NC(=O)[C@H](CCC(=O)O)NC(=O)[C@H](CCCNC(=N)N)NC(=O)CNC(=O)[C@@H](NC(=O)[C@H](CC(C)C)NC(=O)[C@H](CCCNC(=N)N)NC(=O)[C@@H](NC(=O)CNC(=O)[C@H](Cc2ccc(O)cc2)NC(=O)[C@@H]2CCCN2C(=O)[C@H](C)NC(=O)[C@H](C)NC(=O)[C@@H](N)CCCNC(=N)N)C(C)C)CSSC[C@@H]2NC(=O)[C@@H](NC(=O)[C@H](CO)NC(=O)[C@H](CO)NC(=O)[C@H](CO)NC(=O)[C@H](CC(C)C)NC(=O)CNC(=O)[C@H](C)NC(=O)[C@H](CC(C)C)NC(=O)[C@@H](NC(=O)[C@@H](N)CC(=O)O)C(C)C)CSSC[C@H](NC(=O)CNC(=O)[C@H](Cc3c[nH]c4ccccc34)NC(=O)[C@H](CCCCN)NC2=O)C(=O)N[C@@H](CO)C(=O)N[C@@H](CCCCN)C(=O)N[C@@H](CO)C(=O)N[C@@H](CCC(=O)O)C(=O)N[C@@H]([C@@H](C)CC)C(=O)N[C@@H](CO)C(=O)N[C@@H](CO)C(=O)N[C@@H](CC(C)C)C(=O)N[C@H](C(=O)O)CSSC[C@@H](C(=O)NCC(=O)NCC(=O)N[C@@H](CO)C(=O)N[C@@H](CCCNC(=N)N)C(=O)N[C@@H](Cc2c[nH]c3ccccc23)C(=O)O)NC(=O)[C@H]([C@@H](C)O)NC(=O)[C@H](Cc2ccccc2)NC(=O)[C@H]([C@@H](C)CC)NC(=O)[C@H](C(C)C)NC(=O)[C@H](C)NC(=O)[C@H](CCCNC(=N)N)NC1=O  cAMP accumulation (Relaxin-3 receptor 2 (RXFP4, Homo sapiens, UniProt Q8TDU9); agonist; 15.6 nM, wild-type receptor): 13.5% and 49.9% and 32.9%
CC[C@H](C)[C@@H]1NC(=O)[C@H](C)NC(=O)[C@H](CCC(N)=O)NC(=O)[C@@H](NC(=O)CN)CSSC[C@@H]2NC(=O)CNC(=O)[C@H](C)NC(=O)[C@H](CC(C)C)NC(=O)[C@@H]3CSSC[C@@H](C(=O)NCC(=O)O)NC(=O)[C@H](Cc4ccccc4)NC(=O)CNC(=O)[C@H](CC(N)=O)NC(=O)[C@@H]4CCCN4C(=O)CNC(=O)[C@H](CSSC[C@H](NC(=O)[C@H](CCCNC(=N)N)NC(=O)[C@H](CCC(N)=O)NC(=O)[C@H](CCCNC(=N)N)NC(=O)[C@H](CCCCN)NC(=O)[C@H](C(C)C)NC(=O)[C@H](CCCNC(=N)N)NC(=O)[C@H](CC(N)=O)NC1=O)C(=O)N[C@@H](CCCCN)C(=O)N[C@@H](CCC(N)=O)C(=O)N[C@@H](CC(=O)O)C(=O)N[C@@H](CO)C(=O)N[C@@H](CC(=O)O)C(=O)N3)NC(=O)[C@H](C(C)C)NC2=O  kon (Low-density lipoprotein receptor-related protein 6, E1 domain (LRP6, Homo sapiens, UniProt O75581); binding, SPR; pH 7.5): 2.43e+06 ± 470000 M⁻¹ s⁻¹
O=C(CCCCCCS)Nc1ccccc1  TΔS° (Histone deacetylase 8 (HDAC8, Homo sapiens, UniProt Q9BY41); ITC; Tris-HCl buffer; 288 K): 6.1 kcal/mol
Cn1nc(CCC#N)c(=O)c2c(=O)[nH]c(N)nc21  melting temperature (folP; CETSA HiBiT; whole cells): 61.4 °C
N=C(N)NCCS(=O)(=O)O  normalised MST signal (Sodium- and chloride-dependent taurine transporter (SLC6A6, Homo sapiens, UniProt P31641, G62A); binding, microscale thermophoresis; 500 µM, room temperature, with: 50 nM labelled protein; higher = more binding): 0.00156
CCc1occc(=O)c1[O-].[Cl-].[W+4].c1cc[cH-]c1.c1cc[cH-]c1  Gibbs free energy change (Albumin (ALB, Homo sapiens, UniProt P02768); binding, fluorescence quenching; 317 K): -6.14 kcal/mol
CN(Cc1nn(C)c2nc(N)[nH]c(=O)c2c1=O)c1nnn[nH]1  target engagement efficiency (folP; CETSA HiBiT; Escherichia coli, whole cells; concentration not given; relative to: whole cell over lysate ΔTm): 21.2%
O=C1c2sc(-c3ccc(N4CCC(CO)CC4)nc3F)nc2CCN1c1cccnc1  specific binding (TARDBP aggregated; radioligand binding; human, FTLD-TDP type B sarkosyl-insoluble extract; 142.86 nM): 2.81 nM and 2 nM
CC(=O)C12NC(C)(C)CC1(C)C(=O)C1=C2c2c(c3c4n2C(C)(C)CC2=C4C4(CC(C)(C)NC(C)(C4)C2=O)CC3(C)C)C(=O)C(C)(C)N1 (single isomer, unassigned; (-))  inhibition (Sodium channel protein type 9 subunit alpha (Scn9a, Rattus norvegicus, UniProt O08562); ion current, antagonist, whole-cell patch clamp; HEK293T; 10 µM): 2.39 ± 0.09%
CC(C)(C(=O)N1CCC(Nc2nc3c(c(=O)[nH]2)CCCC3)CC1)c1ccc(Cl)cc1  Emax (MRGPRD (Homo sapiens, UniProt Q8TDS7, K102A); miniGq recruitment, agonist, BRET; HEK293T; K102A mutant; relative to: wild type): 71.3 ± 4.64%
Cn1nc(CCC(=O)O)c(=O)c2c(=O)[nH]c(N)nc21  melting temperature shift (folP; CETSA HiBiT; Escherichia coli, cell lysate; concentration not given; relative to: DMSO): 19.1 °C
C[N+]1(C)CCCC1  affinity ratio (Chrnd/Chrna1/Chrne (Mus musculus, UniProt P02716+P04756+P20782, G173A/S470W); ligand binding, agonist, single-channel kinetics; chain A; relative to: wild type over mutant): 1.4
C[C@@H](Nc1nc(N[C@H](C)C(F)(F)F)nc(-c2cccc(Cl)n2)n1)C(F)(F)F  maximal inhibition (Isocitrate dehydrogenase [NADP] cytoplasmic (IDH1, Homo sapiens, UniProt O75874, R132S); refers to: 2-hydroxyglutarate; HCCC9810): 91%
O=C1c2sc(-c3ccc(N4CCC(F)C4)nc3F)nc2CCN1c1cccnc1 (stereo not shown)  specific binding (TARDBP aggregated; radioligand binding; human, FTLD-TDP type B sarkosyl-insoluble extract; 1.8 nM): 0.108 nM and 0.07 nM
C=CC(=O)N1CC2(CCN(c3nc(OC4CCN(CCCOC)CC4)nc4c(OCC(F)(F)F)c(-c5c(C)ccc6[nH]ncc56)c(C5CC5)cc34)CC2)C1  dissociation rate constant koff (GTPase KRas, GDP-bound (KRAS, Homo sapiens, UniProt P01116, G12D); SPR): 0.303 ± 0.013 s⁻¹
COc1ccccc1-c1ccncc1C(=O)Nc1nnc(OCc2ccc(Cl)cc2)s1  remaining activity (RecQ-like DNA helicase BLM, residues 636–1298 (BLM, Homo sapiens, UniProt P54132); ATPase activity, ADP-Glo; 0.008 µM, 1 h): 90%
Cn1nc(CNc2nnn[nH]2)c(=O)c2c(=O)[nH]c(N)nc21  melting temperature (folP; CETSA HiBiT; Escherichia coli, whole cells): 57.9 °C
CCCCCCCCCCCCC/C=C/C=O  isoTOP-ABPP competition ratio (Isocitrate dehydrogenase [NADP] cytoplasmic (IDH1, Homo sapiens, UniProt O75874); competitive isoTOP-ABPP; proteome, soluble, MDA-MB-231; 100 µM, 60 min, with: iodoacetamide probe; relative to: DMSO over compound-treated, higher = stronger cysteine blockade): 1.1
CC(CC(=O)O)c1nn(C)c2nc(N)[nH]c(=O)c2c1=O (stereo not shown)  melting temperature shift (folP; CETSA HiBiT; Escherichia coli, whole cells; concentration not given; relative to: DMSO): 5.03 °C
CCCCCC(O)/C=C/C=O (stereo not shown)  isoTOP-ABPP competition ratio (MMS19 nucleotide excision repair protein homolog (MMS19, Homo sapiens, UniProt Q96T76); competitive isoTOP-ABPP; Ramos soluble proteome; 100 µM, 60 min, with: iodoacetamide probe; relative to: DMSO over compound-treated, higher = stronger cysteine blockade): 1.2
C[Si](C)(C)C[C@H](CN)CC(=O)O  inhibition (SK potassium channel, rat; binding, radioligand binding; 250 µM, with: iodinated apamin): -4%
